Published values pooled from the literature.
Every numbered part comes from another study and shows a few of its results, in no order. “And” joins repeats or separate records; there may be more than shown. Numbers after ± are the reported error. Converted amounts (≈) assume the structure as drawn.

Series 1
Cell line: MDA-MB-468
Read-out: cell viability
Technique: CellCounting-Lite
Tested at: 2000 nM
Temperature: 37 °C
Reading: higher = more viable cells
Endpoint: luminescence signal
CCn1cnc2c(NCc3nc4ccc(F)c(F)c4[nH]3)nc(N3CCn4ncnc4C3)nc21: 42400 a.u. and 35800 a.u. and 38500 a.u.
Cn1cc(-n2cnc3c(NCc4nc5cc(Cl)c(Cl)cc5[nH]4)nc(N4CCNCC4)nc32)cn1: 54700 a.u. and 63000 a.u. and 62200 a.u.
CC(=O)N1CCN(c2nc(NCc3nc4cc(Cl)c(Cl)cc4[nH]3)c3ncn(C)c3n2)CC1: 43700 a.u. and 35800 a.u. and 39700 a.u.
CC(=O)N1CCN(c2nc(NCc3nc4cc(Cl)c(Cl)cc4[nH]3)c3ncn(-c4cnn(C)c4)c3n2)CC1: 38300 a.u. and 34100 a.u. and 34500 a.u.
CCn1cnc2c(NCc3nc4cc(Cl)c(Cl)cc4[nH]3)nc(N3CCC(NC(C)=O)CC3)nc21: 40400 a.u. and 38000 a.u. and 39600 a.u.
CCn1cnc2c(NCc3nc4cc(Cl)c(Cl)cc4[nH]3)nc(N3CCN(C(=O)CNC(C)=O)CC3)nc21: 42400 a.u. and 33800 a.u. and 44200 a.u.
CCn1cnc2c(NCc3nc4cc(Cl)c(Cl)cc4[nH]3)nc(N3CCN(C(C)=O)CC3)nc21: 34400 a.u. and 33400 a.u. and 28500 a.u.
CCn1cnc2c(NCc3nc4cc(F)c(F)cc4[nH]3)nc(N3CCn4ncnc4C3)nc21: 34900 a.u. and 35700 a.u. and 33000 a.u.
CCn1cnc2c(NCc3nc4cc(Cl)c(Cl)cc4[nH]3)nc(N3CCN(Cc4ccncc4)CC3)nc21: 37400 a.u. and 34200 a.u. and 38800 a.u.

Series 2
Organism: Arabidopsis thaliana
Strain: Col-0
Tested at: 25 µg/mL
Notes: seed germination, single repetition
Endpoint: hypocotyl length
CC(C)=CCN1C(=O)C(O)(C(=O)O)Oc2cc(F)ccc21 (stereo not drawn): 1.85 cm and 1.86 cm and 1.81 cm and 1.88 cm and 1.82 cm
O=C(O)C1Oc2cc(F)ccc2N(Cc2ccccc2)C1=O (stereo not drawn): 2.13 cm and 2 cm and 2.1 cm and 2.01 cm and 2.04 cm
O=C(O)C1(O)Oc2cc(Br)ccc2N(Cc2ccccc2)C1=O (stereo not drawn): 1.78 cm and 1.7 cm and 1.73 cm and 1.72 cm and 1.69 cm
CCN1C(=O)C(O)(C(=O)O)Oc2cc(F)ccc21 (stereo not drawn): 1.72 cm and 1.7 cm and 1.73 cm and 1.71 cm

Series 3
SMILES: CC[C@@]1(c2cccc(C(F)(F)F)c2)C2=C(Nc3n[nH]cc31)[C@H](F)C(C)(C)CC2=O (single isomer, unassigned)
Tested at: 1 µM
Endpoint: remaining binding
FLT3 ITD/D835V, human; KINOMEscan: 100%
PIK3CG (Homo sapiens, UniProt P48736); binding, competition with immobilised ligand: 100%
Tyrosine-protein kinase ABL1, phosphorylated (ABL1, Homo sapiens, UniProt P00519, M351T); binding, competition with immobilised ligand: 93%
BRSK2 (Homo sapiens, UniProt Q8IWQ3); binding, competition with immobilised ligand: 100%
Ribosomal protein S6 kinase alpha-5, N-terminal kinase domain (RPS6KA5, Homo sapiens, UniProt O75582); binding, competition with immobilised ligand: 100%
PAK3 (Homo sapiens, UniProt O75914); kinase binding, KINOMEscan; baseline: DMSO control: 100%
FLT3 (Homo sapiens, UniProt P36888, D835H); binding, competition with immobilised ligand: 100%
MAPK13 (Homo sapiens, UniProt O15264); binding, competition with immobilised ligand: 100%
PRKCE (Homo sapiens, UniProt Q02156); kinase binding, KINOMEscan; baseline: DMSO control: 100%

Series 4
Structure (SMILES): O=c1[nH]c(=S)n(C[C@H]2CCCO2)c2nc[nH]c12
Target: Myeloperoxidase (MPO, Homo sapiens, UniProt P05164)
Sequence of UniProt P05164 (whole entry, looked up): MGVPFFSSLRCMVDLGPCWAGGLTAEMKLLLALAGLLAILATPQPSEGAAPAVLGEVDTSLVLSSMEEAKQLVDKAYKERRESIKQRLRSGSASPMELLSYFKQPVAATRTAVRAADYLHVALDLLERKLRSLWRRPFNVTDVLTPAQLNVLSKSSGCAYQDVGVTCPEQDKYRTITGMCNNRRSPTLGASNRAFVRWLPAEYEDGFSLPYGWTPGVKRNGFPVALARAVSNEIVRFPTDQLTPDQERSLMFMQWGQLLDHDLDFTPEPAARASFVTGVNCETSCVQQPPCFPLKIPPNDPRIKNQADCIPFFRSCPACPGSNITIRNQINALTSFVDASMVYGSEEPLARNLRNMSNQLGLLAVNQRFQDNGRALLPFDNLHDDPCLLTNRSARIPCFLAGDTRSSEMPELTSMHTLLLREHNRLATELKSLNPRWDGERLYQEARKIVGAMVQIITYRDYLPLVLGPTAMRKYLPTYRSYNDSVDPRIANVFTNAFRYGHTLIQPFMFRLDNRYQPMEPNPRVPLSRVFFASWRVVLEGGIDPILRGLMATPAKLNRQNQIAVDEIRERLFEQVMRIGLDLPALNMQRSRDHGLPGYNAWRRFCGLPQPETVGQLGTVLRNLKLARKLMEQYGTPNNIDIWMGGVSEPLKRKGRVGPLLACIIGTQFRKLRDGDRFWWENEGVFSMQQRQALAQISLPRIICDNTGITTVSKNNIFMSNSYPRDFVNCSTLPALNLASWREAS
Read-out: enzyme activity
Endpoint: inhibition
0.0046 µM: -1.03% and -12% and -10.8% and -5.85% and -4.86% and 1.99%
0.0003 µM: -11.3% and -14.6% and -0.139% and -17.1% and -4.04% and 13.7% and -9.14%
0.0412 µM: 32.7% and 21.8% and 42.7% and 38.2% and 47.1% and 44.9%

Series 5
Target: Sodium-dependent neutral amino acid transporter B(0)AT1 (SLC6A19, Homo sapiens, UniProt Q695T7)
Sequence of UniProt Q695T7 (whole entry, looked up): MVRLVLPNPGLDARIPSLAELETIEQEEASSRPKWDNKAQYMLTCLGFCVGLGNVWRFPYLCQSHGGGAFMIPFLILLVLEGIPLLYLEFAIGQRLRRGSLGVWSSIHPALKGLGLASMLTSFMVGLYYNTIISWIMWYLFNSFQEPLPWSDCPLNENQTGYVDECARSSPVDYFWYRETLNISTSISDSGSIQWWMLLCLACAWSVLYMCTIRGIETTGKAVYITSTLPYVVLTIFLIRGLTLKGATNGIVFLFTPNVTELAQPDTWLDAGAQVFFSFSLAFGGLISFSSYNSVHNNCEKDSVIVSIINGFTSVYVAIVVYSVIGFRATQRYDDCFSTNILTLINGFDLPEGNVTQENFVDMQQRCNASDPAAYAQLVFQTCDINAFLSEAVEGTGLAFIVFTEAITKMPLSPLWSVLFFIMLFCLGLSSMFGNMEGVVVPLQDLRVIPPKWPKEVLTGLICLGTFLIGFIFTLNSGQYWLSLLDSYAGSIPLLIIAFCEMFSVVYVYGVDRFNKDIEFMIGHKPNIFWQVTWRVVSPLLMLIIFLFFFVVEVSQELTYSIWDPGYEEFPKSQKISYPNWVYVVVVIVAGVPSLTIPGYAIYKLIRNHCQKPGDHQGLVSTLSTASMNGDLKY
Mode: inhibitor
Technique: FLIPR membrane potential
Cells: CHO-BC cells
Tested at: 30 µM
Notes: 30 µM cinromide as 0%
Together with: 1.5 mM L-leucine
Baseline: uninhibited cells
Endpoint: remaining activity
CC(C)NC(=O)CSc1ccc([N+](=O)[O-])cc1: 39 ± 11%
COc1ccc(SCC(=O)NC(C)C)cc1: 80 ± 22%
CCCCCCCCNC(=O)COc1cc(C)c(Cl)c(C)c1: 105 ± 11%
CC(C)NC(=O)COc1ccc2ccccc2c1: 1 ± 0.3%
Cc1cc(NCC(=O)NC(C)C)cc(C)c1Br: -2 ± 2%
Cc1cc(OC(C)(C)C(=O)NC(C)C)cc(C)c1Cl: 127 ± 9%

Series 6
Compound: CCN1/C(=C/C=C2\CCCC(/C=C/C3=[N+](CC)c4ccccc4C3(C)C)=C2NCCCCCCCCN2CCC(Nc3nc4ccccc4n3Cc3ccc(F)cc3)CC2)C(C)(C)c2ccccc21
Cell line: U-87 MG
Tested at: concentration not given
Baseline: DMSO
Endpoint: log2 fold change
measured: GPRC5A mRNA: 2.84
measured: PACSIN3 mRNA: -0.834
measured: RGS16 mRNA: 4.66
measured: WIPI1 mRNA: 1.71
measured: PLPP5 mRNA: 0.986
measured: KIAA1958 mRNA: 1.11
measured: CADM1 mRNA: 2.4
measured: STX6 mRNA: 0.822
measured: CKLF-CMTM1 mRNA: -4.35

Series 7
Compound: CCOc1ccc2nc(Sc3nc(Nc4ccc(OC)cc4)nc(N4CCOCC4)n3)sc2c1
Target: 1-phosphatidylinositol 3-phosphate 5-kinase (PIKFYVE, Homo sapiens, UniProt Q9Y2I7)
Sequence of UniProt Q9Y2I7 (whole entry, looked up): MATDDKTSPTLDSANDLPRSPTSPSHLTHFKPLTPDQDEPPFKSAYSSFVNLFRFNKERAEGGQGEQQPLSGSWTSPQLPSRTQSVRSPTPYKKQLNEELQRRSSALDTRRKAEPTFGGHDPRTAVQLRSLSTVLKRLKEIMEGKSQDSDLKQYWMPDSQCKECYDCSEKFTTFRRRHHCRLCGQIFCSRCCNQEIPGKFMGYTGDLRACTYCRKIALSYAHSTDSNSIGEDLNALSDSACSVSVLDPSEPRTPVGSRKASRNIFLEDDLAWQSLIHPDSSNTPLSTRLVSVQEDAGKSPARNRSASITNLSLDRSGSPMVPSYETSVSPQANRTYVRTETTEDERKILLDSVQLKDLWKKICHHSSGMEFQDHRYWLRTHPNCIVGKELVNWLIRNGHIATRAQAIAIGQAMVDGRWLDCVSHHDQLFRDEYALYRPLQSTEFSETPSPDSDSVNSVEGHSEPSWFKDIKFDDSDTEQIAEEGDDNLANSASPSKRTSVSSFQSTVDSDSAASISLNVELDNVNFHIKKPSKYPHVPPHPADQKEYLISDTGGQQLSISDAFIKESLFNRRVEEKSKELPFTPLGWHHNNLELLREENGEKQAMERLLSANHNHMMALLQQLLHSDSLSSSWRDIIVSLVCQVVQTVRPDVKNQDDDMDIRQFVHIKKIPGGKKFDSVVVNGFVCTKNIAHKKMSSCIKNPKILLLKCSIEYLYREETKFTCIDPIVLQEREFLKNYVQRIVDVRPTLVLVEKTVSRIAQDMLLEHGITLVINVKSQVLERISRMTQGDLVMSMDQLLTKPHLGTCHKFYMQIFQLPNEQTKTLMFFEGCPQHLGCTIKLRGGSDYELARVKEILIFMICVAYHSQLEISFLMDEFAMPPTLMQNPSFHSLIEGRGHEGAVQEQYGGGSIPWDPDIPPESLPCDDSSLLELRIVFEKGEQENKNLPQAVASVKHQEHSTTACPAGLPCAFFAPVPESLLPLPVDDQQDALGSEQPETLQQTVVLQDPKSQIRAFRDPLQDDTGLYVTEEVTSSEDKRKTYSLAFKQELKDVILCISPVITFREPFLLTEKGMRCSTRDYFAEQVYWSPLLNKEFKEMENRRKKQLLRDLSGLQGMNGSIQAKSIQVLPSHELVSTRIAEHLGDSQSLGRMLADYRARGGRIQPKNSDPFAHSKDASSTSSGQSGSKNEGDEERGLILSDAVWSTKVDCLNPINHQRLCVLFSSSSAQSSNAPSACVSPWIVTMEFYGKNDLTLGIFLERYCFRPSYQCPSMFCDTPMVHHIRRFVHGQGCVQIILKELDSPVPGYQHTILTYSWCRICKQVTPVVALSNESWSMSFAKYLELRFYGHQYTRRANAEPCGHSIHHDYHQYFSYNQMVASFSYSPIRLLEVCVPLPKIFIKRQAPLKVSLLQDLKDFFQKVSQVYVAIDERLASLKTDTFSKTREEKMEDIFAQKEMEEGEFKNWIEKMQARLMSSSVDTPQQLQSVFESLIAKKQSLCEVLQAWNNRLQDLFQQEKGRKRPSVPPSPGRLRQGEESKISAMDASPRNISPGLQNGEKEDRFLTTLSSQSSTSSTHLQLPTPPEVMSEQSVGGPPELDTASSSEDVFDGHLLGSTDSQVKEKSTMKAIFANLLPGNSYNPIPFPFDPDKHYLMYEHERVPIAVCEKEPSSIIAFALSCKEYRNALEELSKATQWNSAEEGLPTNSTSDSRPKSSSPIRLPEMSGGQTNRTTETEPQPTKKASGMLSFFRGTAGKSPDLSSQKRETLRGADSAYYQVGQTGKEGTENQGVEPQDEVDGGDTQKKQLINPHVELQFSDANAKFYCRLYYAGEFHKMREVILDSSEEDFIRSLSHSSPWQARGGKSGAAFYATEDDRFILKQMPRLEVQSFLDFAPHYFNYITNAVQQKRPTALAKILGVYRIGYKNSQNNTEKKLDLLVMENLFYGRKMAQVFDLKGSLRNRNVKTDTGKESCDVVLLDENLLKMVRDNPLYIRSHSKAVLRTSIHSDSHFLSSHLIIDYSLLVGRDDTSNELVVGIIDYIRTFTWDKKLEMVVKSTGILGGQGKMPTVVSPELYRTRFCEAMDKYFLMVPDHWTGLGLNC
Technique: KINOMEscan
Notes: unit not given
Baseline: DMSO
Endpoint: remaining binding
3300 nM: 0.0052 and 0.0085
123 nM: 0.516 and 0.61
0.508 nM: 1.08 and 1.14
1100 nM: 0.0267 and 0.0293
4.53 nM: 1.07 and 0.936
4.57 nM: 0.971 and 1.02
10000 nM: 0.00271 and 0.00218
40.7 nM: 0.744 and 0.704

Series 8
SMILES: C[C@@H]1CN(c2ccc(-c3cc(C(=O)NCCOCCOCCOCCOCCOCCOCCNC(=O)/C=C/c4[nH]cc(C(=O)N[C@@H](CC(N)=O)c5ccc(F)c(Cl)c5)c4-c4ccc(Cl)cc4F)ccc3F)cc2NC(=O)c2ccc(F)cc2C(F)(F)F)C[C@H](C)N1C
Read-out: thermal unfolding
Technique: differential scanning fluorimetry
Tested at: 5.5 µM
Reading: higher = more unfolded
Endpoint: SYPRO Orange fluorescence
WDR5: WD repeat-containing protein 5 (WDR5, Homo sapiens, UniProt P61964)
DCAF1: DDB1- and CUL4-associated factor 1 (DCAF1, Homo sapiens, UniProt Q9Y4B6)
Sequence of UniProt Q9Y4B6 (whole entry, looked up): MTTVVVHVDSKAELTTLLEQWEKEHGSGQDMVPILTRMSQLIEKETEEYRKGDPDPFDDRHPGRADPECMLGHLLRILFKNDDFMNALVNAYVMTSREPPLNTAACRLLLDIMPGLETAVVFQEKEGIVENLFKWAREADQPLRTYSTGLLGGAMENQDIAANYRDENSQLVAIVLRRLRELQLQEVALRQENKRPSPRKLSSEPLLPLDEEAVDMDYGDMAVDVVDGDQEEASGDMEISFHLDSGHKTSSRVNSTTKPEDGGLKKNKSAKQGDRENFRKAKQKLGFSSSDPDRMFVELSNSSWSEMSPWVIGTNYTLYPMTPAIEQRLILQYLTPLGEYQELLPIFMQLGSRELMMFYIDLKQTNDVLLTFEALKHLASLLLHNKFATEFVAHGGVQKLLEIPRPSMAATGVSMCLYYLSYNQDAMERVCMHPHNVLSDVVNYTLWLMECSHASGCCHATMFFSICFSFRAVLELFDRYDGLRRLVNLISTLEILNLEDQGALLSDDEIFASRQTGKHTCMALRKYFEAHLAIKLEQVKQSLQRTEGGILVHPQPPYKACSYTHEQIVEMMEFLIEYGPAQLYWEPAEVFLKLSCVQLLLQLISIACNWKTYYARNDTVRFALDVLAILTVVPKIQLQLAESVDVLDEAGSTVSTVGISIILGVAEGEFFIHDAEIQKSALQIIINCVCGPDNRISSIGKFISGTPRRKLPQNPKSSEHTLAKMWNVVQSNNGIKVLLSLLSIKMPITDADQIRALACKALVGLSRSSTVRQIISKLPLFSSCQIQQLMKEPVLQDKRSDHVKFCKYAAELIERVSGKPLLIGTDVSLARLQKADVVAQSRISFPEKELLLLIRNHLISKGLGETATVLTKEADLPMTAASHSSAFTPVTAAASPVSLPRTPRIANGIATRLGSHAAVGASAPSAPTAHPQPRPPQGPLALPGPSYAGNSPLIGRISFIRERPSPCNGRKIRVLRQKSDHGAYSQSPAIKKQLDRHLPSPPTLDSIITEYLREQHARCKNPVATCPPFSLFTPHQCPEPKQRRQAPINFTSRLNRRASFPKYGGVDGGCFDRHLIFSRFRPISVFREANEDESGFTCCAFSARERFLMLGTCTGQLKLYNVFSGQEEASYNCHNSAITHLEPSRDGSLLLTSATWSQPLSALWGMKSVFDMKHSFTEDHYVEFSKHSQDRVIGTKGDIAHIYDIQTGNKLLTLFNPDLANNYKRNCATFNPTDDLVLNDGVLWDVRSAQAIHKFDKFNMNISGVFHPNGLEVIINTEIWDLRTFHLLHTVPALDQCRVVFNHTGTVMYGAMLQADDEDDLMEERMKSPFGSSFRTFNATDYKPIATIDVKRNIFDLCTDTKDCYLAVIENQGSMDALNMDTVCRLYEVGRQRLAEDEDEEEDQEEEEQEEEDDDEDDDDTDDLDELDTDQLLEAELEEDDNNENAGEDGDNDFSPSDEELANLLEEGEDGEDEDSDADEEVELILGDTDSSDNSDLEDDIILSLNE
WDR5; 62.21 °C: 15200 a.u.
WDR5; 83.41 °C: 64400 a.u.
DCAF1; 75.41 °C: 43400 a.u.
DCAF1; 57.41 °C: 36000 a.u.
DCAF1; 49.2 °C: 17400 a.u.
WDR5; 88.21 °C: 57500 a.u.
WDR5; 55.81 °C: 16400 a.u.

Series 9
Medium: FeSSIF
Time: 24 h
pH: 5.0
Endpoint: kinetic solubility
Cc1ccc(O)c(C)c1-c1cnc2[nH]c(-c3cnc(N4CC5(CC(CN6CCN(c7ccc(NC8CCC(=O)NC8=O)cc7F)CC6)C5)C4)nc3)cc2c1C#N (stereo not drawn): 113 µM (≈ 85.3 µg/mL)
Cc1ccc(O)c(C)c1-c1cnc2[nH]c(-c3cnc(N4CCC(CN5CCC(c6ccc(NC7CCC(=O)NC7=O)cc6F)CC5)CC4)nc3)cc2c1C#N (stereo not drawn): 144 µM (≈ 107 µg/mL)
Cc1ccc(O)c(C)c1-c1cnc2[nH]c(-c3cnc(N4CCC(CCN5CCN(c6ccc(NC7CCC(=O)NC7=O)cc6F)CC5)CC4)nc3)cc2c1C#N (stereo not drawn): 131 µM (≈ 99.2 µg/mL)
Cc1ccc(O)c(C)c1-c1cnc2[nH]c(-c3cnc(N4CCC(CN5CCN(c6cc7c(cc6F)n(C6CCC(=O)NC6=O)c(=O)n7C)CC5)CC4)nc3)cc2c1C#N (stereo not drawn): 77 µM (≈ 61.4 µg/mL)

Further values, each from its own experiment
Cc1ncsc1-c1ccc(C2(NC(=O)C3CC(O)CN3C(=O)C(NC(=O)c3ccc(COc4c(-c5c(C)c(F)cc6[nH]ncc56)c(C5CC5)cc5c(N6CC7CC6CN7)nc(OC6CCOCC6)nc45)cc3)C(C)C)CC2)cc1 (stereo not drawn) — DC50 (GTPase KRas (KRAS, Homo sapiens, UniProt P01116, G12D); degrader, In-Cell ELISA; AsPC-1 (KRAS G12D); 24 h, geometric mean): 181 nM
COc1cc(C(=O)OCCCN2CCCN(CCCOC(=O)c3cc(OC)c(OC)c(OCc4ccc([N+](=O)[O-])cc4)c3)CC2)cc(OC)c1OC — rotarod fall latency (naive mice, mixed sexes; intrathecal, 100 nmol, before dosing): 61 s and 83 s and 78 s and 65 s and 70 s and 73 s
Cc1ncsc1-c1ccc(C(CO)NC(=O)C2CC(O)CN2C(=O)C(NC(=O)c2ccc(COc3c(-c4c(C)c(F)cc5[nH]ncc45)c(C4CC4)cc4c(N5CC6CC5CN6)nc(OC5CCOCC5)nc34)cc2)C(C)C)cc1 (stereo not drawn) — phospho-ERK1/2 level (AsPC-1; in-cell ELISA; 30 nM, individual replicates): 81.6% and 86.2% and 72.4% and 85.6% and 76.6% and 79%
Cc1nc(C)c(C=[N+]([O-])C(C)(C)C)nc1C — oxygen consumption rate (PC-12; Seahorse; 300 µM, 52.67 min, pretreatment 0.8778 h, together with: MPP+): 907 pmol/min and 758 pmol/min and 831 pmol/min and 585 pmol/min and 868 pmol/min
Cc1ncsc1-c1ccc(C(CO)NC(=O)C2CC(O)CN2C(=O)C(C(C)C)n2cc(-c3ccc(COc4c(-c5c(C)c(F)cc6[nH]ncc56)c(C5CC5)cc5c(N6CC7CC6CN7)nc(OC6CCOCC6)nc45)cc3)nn2)cc1 (stereo not drawn) — IC50 (HCT-116; cell growth or viability, ATP luminescence): 391 nM
C=CC(=O)N1CCN(c2nc(OC[C@@H]3CCCN3C)nc3c2CCN(c2cccc4cccc(C)c24)C3)C[C@@H]1CC#N — normalized BRET (GTPase KRas (KRAS, Homo sapiens, UniProt P01116, Q61R); binding, competitor, NanoBRET; HEK293; 20 µM): 207% and 178% and 125%
Cc1ncsc1-c1ccc(C2(NC(=O)C3CC(O)CN3C(=O)C(NC(=O)c3ccc(COc4c(-c5c(C)c(F)cc6[nH]ncc56)c(C5CC5)cc5c(N6CC7CC6CN7)nc(OC6CCOCC6)nc45)cc3)C(C)(C)C)CC2)cc1 (stereo not drawn) — koff (von Hippel-Lindau disease tumor suppressor, with Elongin B/C (VHL, Homo sapiens, UniProt P40337); SPR, single-cycle; immobilized VCB complex; binary): 0.053 s⁻¹ and 0.0418 s⁻¹ and 0.0412 s⁻¹

Some of these lines once more (series 2):
O=C(O)C1(O)Oc2cc(Br)ccc2N(Cc2ccccc2)C1=O (stereo not drawn): 1.78 cm and 1.7 cm and 1.73 cm and 1.72 cm and 1.69 cm
O=C(O)C1Oc2cc(F)ccc2N(Cc2ccccc2)C1=O (stereo not drawn): 2.13 cm and 2 cm and 2.1 cm and 2.01 cm and 2.04 cm
CC(C)=CCN1C(=O)C(O)(C(=O)O)Oc2cc(F)ccc21 (stereo not drawn): 1.85 cm and 1.86 cm and 1.81 cm and 1.88 cm and 1.82 cm
CCN1C(=O)C(O)(C(=O)O)Oc2cc(F)ccc21 (stereo not drawn): 1.72 cm and 1.7 cm and 1.73 cm and 1.71 cm
